Measurements gathered from unrelated publications.
A part holds a random share of what one study measured.

Series 1
Target: Histone acetyltransferase KAT6A, winged helix 2, GST fusion (KAT6A, Homo sapiens, UniProt Q92794, residues 85-181)
Technique: protein binding microarray
Molecule type: double-stranded DNA, one strand shown
Sample: in vitro
Concentration: not given
Notes: 8-mer, flanks averaged, mean of 2 arrays, mostly near background
Baseline: not given
Reading: higher = stronger binding
Residues (chain): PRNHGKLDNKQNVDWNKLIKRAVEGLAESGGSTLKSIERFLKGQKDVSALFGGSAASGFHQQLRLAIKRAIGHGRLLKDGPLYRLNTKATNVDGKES
With `CGGCCTAG` the E-score was -0.00228.
`CGTTCAAC` has an E-score of 0.081.
`CTCAGCCC` gave an E-score of -0.00149.
With `AACTATGC` the E-score was 0.0483.
The E-score of `CGTTGAAC` is reported as -0.0716.
`AGGACGGC` has an E-score of 0.0374.
With `CCCAATTC` the E-score was 0.158.
`AAGACACG` has an E-score of 0.0494.
`AGAGCGCG` gave an E-score of 0.0253.
For `ACATCACA`, the E-score was -0.161.
`CAGTGTAA` gave an E-score of -0.0192.
`ATGTGTTA` has an E-score of -0.0888.
`CGACCGCC` gave an E-score of 0.091.
With `GCATCATA` the E-score was 0.105.
`CCCCTGAA` has an E-score of 0.128.
`AGGTACTG` gave an E-score of 0.046.
The E-score of `GCTGTCGA` is reported as -0.0259.
The E-score of `CTCAGTAC` is reported as -0.0356.
`CTCCTGAA` has an E-score of 0.1.
With `AAGGACTA` the E-score was -0.101.
`CCGGGGAC` has an E-score of 0.0772.
For `GCGTCTGA`, the E-score was 0.0362.
`ACCAGCGC` gave an E-score of 0.00675.

Series 2
Target: Sal-like protein 4, full length isoform B (SALL4, Homo sapiens, UniProt Q9UJQ4-2, residues 1-616)
Technique: universal PBM
Molecule type: double-stranded DNA, one strand shown
Sample: in vitro
Concentration: not given
Notes: 8-mer, flanks averaged, mean of replicates
Reading: higher = stronger binding
Residues (chain): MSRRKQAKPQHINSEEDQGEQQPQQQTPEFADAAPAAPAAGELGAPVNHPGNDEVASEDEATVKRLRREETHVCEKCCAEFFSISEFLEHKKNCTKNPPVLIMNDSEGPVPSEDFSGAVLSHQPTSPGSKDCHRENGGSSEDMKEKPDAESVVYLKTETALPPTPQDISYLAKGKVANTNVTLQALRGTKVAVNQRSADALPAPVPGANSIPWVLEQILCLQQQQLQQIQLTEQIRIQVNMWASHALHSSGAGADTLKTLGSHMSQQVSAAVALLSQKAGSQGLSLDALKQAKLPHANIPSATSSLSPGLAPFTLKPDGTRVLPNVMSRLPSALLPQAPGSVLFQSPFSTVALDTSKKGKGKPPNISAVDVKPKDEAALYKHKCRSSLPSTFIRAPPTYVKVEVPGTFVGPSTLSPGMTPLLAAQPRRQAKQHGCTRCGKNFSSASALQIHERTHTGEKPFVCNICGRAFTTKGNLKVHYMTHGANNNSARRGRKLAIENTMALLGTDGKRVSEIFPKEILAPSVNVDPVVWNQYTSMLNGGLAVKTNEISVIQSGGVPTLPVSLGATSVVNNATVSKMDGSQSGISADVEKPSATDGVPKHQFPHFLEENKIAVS
The E-score of `GATCGCCA` is reported as -0.123.
The E-score of `CTTGATCA` is reported as 0.0598.
For `AGACGGTG`, the E-score was -0.224.
`AGGTTCAC` has an E-score of -0.195.
For `GCCAGACA`, the E-score was -0.0698.
With `ACTCCGTG` the E-score was -0.113.
`CCCATTTA` gave an E-score of 0.108.
The E-score of `GAACTTAA` is reported as 0.00725.
`ACGAGTTG` has an E-score of -0.0634.
For `GCCGCCCA`, the E-score was -0.448.
For `AGGGCGAC`, the E-score was -0.247.
`CTAAAAGC` has an E-score of -0.224.
For `GCACAAGC`, the E-score was -0.034.
With `AGCATCTG` the E-score was -0.0844.
`GCTGAAAC` has an E-score of -0.0713.
With `GTGCAAGA` the E-score was 0.00087.
`CATGCGGA` gave an E-score of -0.184.
For `GGATAGTA`, the E-score was 0.241.
For `CCTTAGAA`, the E-score was -0.00173.
`CACCAATA` gave an E-score of 0.216.
`ATCGCGCG` has an E-score of -0.19.
`CGGTATAC` has an E-score of -0.0998.
For `ACAGCCTG`, the E-score was -0.081.
`GGCTGACC` has an E-score of -0.216.
The E-score of `GGTTCGCA` is reported as -0.163.

Series 3
Target: Phosphate system positive regulatory protein PHO4, full length, GST-tagged (PHO4, Saccharomyces cerevisiae, UniProt P07270, residues 1-312)
Technique: competition protein-binding microarray
Molecule type: double-stranded DNA, one strand shown
Sample: in vitro
Concentration: 2 µM
Notes: whole 60-bp probe, lowest competitor level
Together with: Cbf1 competitor, 0.05 µM
Reading: higher = stronger binding
Target sequence (chain): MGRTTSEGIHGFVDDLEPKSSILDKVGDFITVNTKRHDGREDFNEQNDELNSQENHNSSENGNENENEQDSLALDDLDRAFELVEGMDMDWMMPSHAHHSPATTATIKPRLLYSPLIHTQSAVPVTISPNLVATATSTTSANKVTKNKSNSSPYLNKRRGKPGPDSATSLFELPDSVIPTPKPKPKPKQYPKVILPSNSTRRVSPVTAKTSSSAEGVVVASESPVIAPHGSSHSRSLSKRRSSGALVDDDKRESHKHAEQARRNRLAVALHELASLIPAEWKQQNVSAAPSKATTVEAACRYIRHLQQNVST
`ATAACCACTAAATTCAAAAACACTTATTTTCAATATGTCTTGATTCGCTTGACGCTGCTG` gave a fluorescence intensity of 3350 a.u.
`CGTCCTAGTGATTTTCACGTGGAGTCCATGAGGAAGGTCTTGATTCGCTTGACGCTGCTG` has a fluorescence intensity of 13500 a.u.
`GCCCGATCCTTTGGACACGTGCCGACAGGACTACTCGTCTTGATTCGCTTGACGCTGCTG` has a fluorescence intensity of 15800 a.u.
The fluorescence intensity of `TATTTTTTTTTTTTTTATTTTGGTAGAATAGATTACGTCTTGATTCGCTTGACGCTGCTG` is reported as 3150 a.u.
`CGCGCAAGTGTTCACCACGTAATCGCATCGCCCCTCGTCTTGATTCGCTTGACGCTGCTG` has a fluorescence intensity of 4980 a.u.
`CCGCTAACAAATCCACACGTCGCACTGAAAGTGATAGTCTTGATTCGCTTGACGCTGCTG` has a fluorescence intensity of 5670 a.u.
`TGGCAGTAACACCGTCACGCTTTTCATGTTTATGGCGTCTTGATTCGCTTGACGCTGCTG` gave a fluorescence intensity of 6310 a.u.
`TATCGTCATATAAAAAACGTGCAAAGTATATGTAACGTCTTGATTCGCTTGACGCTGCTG` gave a fluorescence intensity of 14800 a.u.
`CATATCAGTGGTAGCAACGTGGTCGCACTGAAGAATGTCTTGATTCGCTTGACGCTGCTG` has a fluorescence intensity of 17100 a.u.
With `CGTCCTAGTGATTTTCACGTGAAGTCCATGAGGAAGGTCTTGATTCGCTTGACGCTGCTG` the fluorescence intensity was 9010 a.u.
`CGGGGTTAAGTTTGTGTGGTGGGTGGCTTGCAGCAGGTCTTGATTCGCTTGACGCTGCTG` gave a fluorescence intensity of 4990 a.u.
For `CGGGGTTAAGTTTGTTCGGTGGGTGGCTTGCAGCAGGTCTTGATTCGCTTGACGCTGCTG`, the fluorescence intensity was 4140 a.u.
With `CTTCTGTAAATTTGTGGTGTGGGTGGACGCGCCCCGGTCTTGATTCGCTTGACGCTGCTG` the fluorescence intensity was 4780 a.u.
`AAAAAAAAAAAAAGGTATGTGCGGGAAGAGAATCTAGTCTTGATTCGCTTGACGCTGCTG` has a fluorescence intensity of 4450 a.u.
`AAAGCGGTAATTTGTCACGGGACTTCACATATCTATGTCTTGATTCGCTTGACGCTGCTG` has a fluorescence intensity of 6870 a.u.
For `GCAGCAGTGGCCGCACTCGTGGCCGTCGAGTCATCGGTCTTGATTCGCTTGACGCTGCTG`, the fluorescence intensity was 8940 a.u.
`TGAACGAAAAGTGTAGGCGTGCCAGAAATGTCAACAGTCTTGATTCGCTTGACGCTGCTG` has a fluorescence intensity of 7470 a.u.
With `TTTAGTGCGAACGCCTACGTGTCCTGTTAACTTATCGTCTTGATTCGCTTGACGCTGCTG` the fluorescence intensity was 6460 a.u.

Series 4
Target: Hepatocyte nuclear factor 3-alpha (Foxa1, Mus musculus, UniProt P35582, residues 1-468, full length assumed)
Chain of UniProt P35582 (whole entry, looked up): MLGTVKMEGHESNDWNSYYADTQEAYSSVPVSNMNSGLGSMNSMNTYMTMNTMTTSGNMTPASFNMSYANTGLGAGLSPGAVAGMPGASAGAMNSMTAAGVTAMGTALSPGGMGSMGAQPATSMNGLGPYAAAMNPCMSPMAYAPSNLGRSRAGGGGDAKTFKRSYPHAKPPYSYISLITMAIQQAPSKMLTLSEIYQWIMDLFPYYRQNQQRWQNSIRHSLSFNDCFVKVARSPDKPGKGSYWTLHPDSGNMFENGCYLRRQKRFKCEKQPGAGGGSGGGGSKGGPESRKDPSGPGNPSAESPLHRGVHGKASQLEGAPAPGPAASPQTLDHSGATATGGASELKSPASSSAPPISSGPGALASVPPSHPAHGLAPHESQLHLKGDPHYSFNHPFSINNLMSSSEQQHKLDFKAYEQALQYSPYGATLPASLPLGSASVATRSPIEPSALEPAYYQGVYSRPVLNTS
Technique: EMSA with sequencing
Molecule type: double-stranded DNA, one strand shown
Sample: in vitro
Concentration: 10 and 20 nM
Notes: whole designed probe, mean of two concentrations, ends assumed
Baseline: negative control set to 0
Reading: higher = stronger binding
`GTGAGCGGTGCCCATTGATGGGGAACGTGTGTGCGCGCGCGTGTGTGTGTGTTTTCTTAAGCCGGGCTATTCAAACCCTGCTGCAATTCTCCGGTAAACAATGTTACATGGGGCATAATGCAAATAAACGCAATGATTCATGCGCGGTTCGCGCACTTTGCAGCCGGCCCGGTGGAGCAGCCAGTGCCGGATTTCTCCCTTTTTTTGCAGATCTGCAGATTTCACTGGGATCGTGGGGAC` — result for “normalised bound fraction”: 0.426 ratio.
For `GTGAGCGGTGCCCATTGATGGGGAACATCTTCCCCCTCTTCCTTGCCCCACCAGCTCACCTTCCCGGGTTATTTGCAGATAGGAAAATAAATAAAGCCGGCATTCGTTAACCCTCTTCTGGCGCAAACTGCTGTTTGCTCTGGATGAATCATGGTCCTTTGGCGACGCCAGGCCGGGCGTAGACAAAGCACCGTGTCAGGGCCATGATCCGGGGTGGCCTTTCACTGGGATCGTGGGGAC`, “normalised bound fraction” read 0.344 ratio.
For `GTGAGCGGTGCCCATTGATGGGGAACCCCGGAGGACCCGACCGGAGAGGGCGAGAGGAGGAGGAGCCCGGGTGGCGGGAAGCGAGCCCAGGTTCCCGCGGCCTTGCGAGGGCACGCAGGGCAATCTGTGCTTTATCTTTCGCAGCGGCGATGAGCTGGTGACTTTTGGGGGTCATCCTGAGGGACATAGACGAAACTGGTTGGGAGGTAGTTAATTGCTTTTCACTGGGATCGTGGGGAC`, “normalised bound fraction” read -0.0675 ratio.
`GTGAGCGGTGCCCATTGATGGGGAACCAGTCACAGATTTGCATACAATACAATTATGTATTGGCTATTTACAATTTACAGTAGTGGTTCTTCCTCTGAGAAATATAAGTACAAAAGCTAAGTAAACAATGAGGTACTGCCATTTGGGATTTATTATGTGTCATAGCTTAAAGAACTGGCCTTTAGCAAATATTAAACAAATCAACCTGAATAAAATAGTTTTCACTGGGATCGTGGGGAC` — result for “normalised bound fraction”: 0.532 ratio.
`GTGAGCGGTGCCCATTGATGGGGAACTTACCGAAGATAGGAATTTCTTGCTTTTATTAAAACTGACCCAAATGTAATCCAATCAGGATTGCAAGATGTTATATTTGACCTATAAATATAAGTAAACATGGCTCTCTTTATCTGGGAGCCATTTGTTGTGAAGGCAGAATTCCTTCATATATGTTTTACTGTTGCAGATAAAACTCAGTATTAAAAAAATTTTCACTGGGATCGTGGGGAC`: “normalised bound fraction” 0.261 ratio.
`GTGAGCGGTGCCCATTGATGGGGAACAATGTCTTTAGCAAGGTAATCATTTTCAAAAAATAGAAGAGAACTACATTAAATATTACTGATAAAAGCAAAAGCATCTATAAATTAGCATTCATGTTTACATATTAGTTTCTTACAAAATTAATTCCATAGAAATCTCTGGGAAAATTACAATTTCAAGCTACAGTGGATCTAAGTTTATCTAAATATTTTATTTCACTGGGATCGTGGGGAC` — result for “normalised bound fraction”: 0.262 ratio.
For `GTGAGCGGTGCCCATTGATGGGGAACATAAAGCTATTTCTCTGCTATTTGAAAATACAATAGAAGAAACTGAGCCTTTTAGACATTCGTCAGCCTCTTCTAATAAACCTTTGTACTATGTAATCTTCAGGAAATTCAAAGCTCGGAGACTTTTCCTATTCTTTTCCTCTAGACCTGACAATCAAACACTTCCCCGCTTCAACACATCTCATTTTCTAGATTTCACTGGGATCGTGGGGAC`, “normalised bound fraction” read 0.00636 ratio.
`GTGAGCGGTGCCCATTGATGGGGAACGGAAGGAGAATATCTCTGCTACTTTATTTTTGTGTATTAGCTGATTGTTTCACGTGAAGAATGCTCACATGGTTTTTGCAATGTGCTGGCATATGTTGACATATTGATGCGTAGATGTGTTTGTGTGTTTGGTTTTAGGCAAATGGCACCAAGGCTTGAACTGCGACTCCCGAAGTGACCAGTGCCACCATCCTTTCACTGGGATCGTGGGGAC`: “normalised bound fraction” 0.199 ratio.

Some of these lines once more (series 2):
`CTAAAAGC` has an E-score of -0.224.
`CCCATTTA` gave an E-score of 0.108.
`CACCAATA` gave an E-score of 0.216.
For `CCTTAGAA`, the E-score was -0.00173.
`GGCTGACC` has an E-score of -0.216.
With `ACTCCGTG` the E-score was -0.113.
The E-score of `CTTGATCA` is reported as 0.0598.
For `GCACAAGC`, the E-score was -0.034.
For `GCCGCCCA`, the E-score was -0.448.
`CATGCGGA` gave an E-score of -0.184.
For `AGGGCGAC`, the E-score was -0.247.
